{"data": "Measured values pooled from the literature"}
{"Structure (SMILES)": "CC[C@H](C)[C@H](NC(=O)[C@H](Cc1ccccc1)NC(=O)[C@H](CCC(=O)O)NC(=O)[C@H](CCCCNC(=O)COCCOCCNC(=O)COCCOCCNC(=O)CC[C@H](NC(=O)CCCCCCCCCCCCCCCCC(=O)O)C(=O)O)NC(=O)[C@H](C)NC(=O)[C@H](C)NC(=O)[C@H](CCC(N)=O)NC(=O)CNC(=O)[C@H](CCC(=O)O)NC(=O)[C@H](CC(C)C)NC(=O)[C@H](Cc1ccc(O)cc1)NC(=O)[C@H](CO)NC(=O)[C@H](CO)NC(=O)[C@@H](NC(=O)[C@H](CC(=O)O)NC(=O)[C@H](CO)NC(=O)[C@@H](NC(=O)[C@H](Cc1ccccc1)NC(=O)[C@@H](NC(=O)CNC(=O)[C@H](CCC(=O)O)NC(=O)C(C)(C)NC(=O)[C@@H](N)Cc1cnc[nH]1)[C@@H](C)O)[C@@H](C)O)C(C)C)C(=O)N[C@@H](C)C(=O)N[C@@H](Cc1c[nH]c2ccccc12)C(=O)N[C@@H](CC(C)C)C(=O)N[C@H](C(=O)N[C@@H](CCCNC(=N)N)C(=O)NCC(=O)N[C@@H](CCCNC(=N)N)C(=O)NCC(=O)O)C(C)C", "system": "human, type 2 diabetes", "conditions": "dose not given, decreased appetite, during treatment", "how to read": "relative to: subjects", "measurement": "incidence of adverse events", "result": "26.7%"}
{"Structure (SMILES)": "CCC(C)n1ncn(-c2ccc(N3CCN(c4ccc(OCC5COC(Cn6cncn6)(c6ccc(Cl)cc6Cl)O5)cc4)CC3)cc2)c1=O (centres unmarked)", "system": "healthy human volunteers", "conditions": "oral, 200 mg, compound alone cohort", "measurement": "incidence of any adverse event", "result": "47%"}
{"Structure (SMILES)": "CNCc1ccc(-c2[nH]c3cc(F)cc4c3c2CCNC4=O)cc1", "system": "human patients", "conditions": "oral, dose not given, all grades, all doses", "measurement": "incidence of anaemia (haemoglobin decreased)", "result": "30.4%"}
{"Structure (SMILES)": "CC(C)n1c(Nc2cccnc2)nc2cnc(Nc3ccc(N4CCN(C)CC4)cc3)nc21", "system": "healthy human, male", "conditions": "concentration not given, all three DDI studies", "measurement": "incidence of oral ulcers TEAE", "result": "11.9%"}
{"Structure (SMILES)": "Cn1cnc2ccc(Nc3c(F)ccc(NS(=O)(=O)N4CC(F)C4)c3Cl)c(Cl)c2c1=O", "system": "human", "conditions": "dose not given, combination therapy, first-in-human", "how to read": "relative to: participants", "measurement": "incidence of blurred vision", "result": "4%"}
{"Structure (SMILES)": "C[C@@H](Oc1ccc(S(C)(=O)=O)cc1C(=O)N1C[C@@H]2C[C@]2(c2cc(C(F)(F)F)on2)C1)C(F)(F)F", "system": "human", "conditions": "oral, 25 mg", "measurement": "incidence of Conjunctivitis", "result": "16.7%"}
{"Structure (SMILES)": "CC1(C)CC[C@]2(NC(=O)C(C)(F)F)CC[C@]3(C)[C@H](C(=O)C=C4[C@@]5(C)C=C(C#N)C(=O)C(C)(C)[C@@H]5CC[C@]43C)[C@@H]2C1", "system": "human", "conditions": "oral, 150 mg once daily", "measurement": "incidence of generalized pruritus", "result": "0%"}
{"Structure (SMILES)": "CO[C@H]1/C=C/O[C@@]2(C)Oc3c(C)c(O)c4c(O)c(c(/C=N/N5CCN(C)CC5)c(O)c4c3C2=O)NC(=O)/C(C)=C\\C=C\\[C@H](C)[C@H](O)[C@@H](C)[C@@H](O)[C@@H](C)[C@H](OC(C)=O)[C@@H]1C", "system": "healthy human volunteers", "conditions": "oral, 600 mg, itraconazole cohort, with: gepotidacin 1500 mg", "measurement": "incidence of cardiac disorders", "result": "0%"}
{"note": "For quick reference, copied from above:"}
{"Structure (SMILES)": "CC1(C)CC[C@]2(NC(=O)C(C)(F)F)CC[C@]3(C)[C@H](C(=O)C=C4[C@@]5(C)C=C(C#N)C(=O)C(C)(C)[C@@H]5CC[C@]43C)[C@@H]2C1", "system": "human", "conditions": "oral, 150 mg once daily", "measurement": "incidence of generalized pruritus", "result": "0%"}
